Assay results pooled from the literature.
Compare with care: the assays were run in different laboratories. pKd: −log10 of the molar value.
T1: G-quadruplex DNA, intramolecular, parallel, heme DNAzyme; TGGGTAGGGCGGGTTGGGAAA
T2: G-quadruplex DNA G6A/G17A (Homo sapiens); AAGGGAGGGCGGCGGGACA
T3: G-quadruplex DNA (Homo sapiens); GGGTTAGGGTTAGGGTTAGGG
T4: G-quadruplex DNA, G-quadruplex (Homo sapiens); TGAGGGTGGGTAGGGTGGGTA
T5: G-quadruplex DNA central-tetrad variant; GAGTGGGAAGGGTGGGA
T6: G-quadruplex DNA, parallel (Homo sapiens); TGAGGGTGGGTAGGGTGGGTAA
T7: G-quadruplex DNA, quadruplex; GGTTGGTGTGGTTGG
T8: G-quadruplex DNA, G-quadruplex (Homo sapiens); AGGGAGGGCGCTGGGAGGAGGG
T9: G-quadruplex DNA (Homo sapiens); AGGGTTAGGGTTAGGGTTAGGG

C=CC1=C(C)C2=Cc3c(C=C)c(C)c4[n]3[Fe][n]3c(c(C)c(CCC(=O)O)c3=CC3=NC(=C4)C(C)=C3CCC(=O)O)=CC1=N2  pKd (T1, G-quadruplex DNA, intramolecular, parallel, heme DNAzyme; UV-vis absorbance titration; KCl 20 mM, together with: Fe(II)-heme 0.5 µM): 5.89
Nc1nc2c(ncn2COCCO)c(=O)[nH]1  pKd (T2, G-quadruplex DNA G6A/G17A (Homo sapiens); microscale thermophoresis; pH 7, KCl 37.5 mM): 5.38
C[n+]1ccc(-c2c3nc(c(-c4cc[n+](C)cc4)c4ccc([nH]4)c(-c4cc[n+](C)cc4)c4nc(c(-c5cc[n+](C)cc5)c5ccc2[nH]5)C=C4)C=C3)cc1  melting temperature shift (T3, G-quadruplex DNA (Homo sapiens); FRET melting; 1 µM, pH 7.2, Na+ 50 mM; higher = more stabilisation): 30.6 °C
COc1cc(-c2ccc(N(C)C)cc2)c2cc3[n+](cc2c1OC)CCc1cc2c(cc1-3)OCO2  melting temperature shift (T4, G-quadruplex DNA, G-quadruplex (Homo sapiens); FRET melting; target 0.2 µM, pH 7.0, KCl 10 mM, ligand:DNA ratio 5; higher = more stabilisation): 3.6 °C
C=CC1=C(C)c2cc3[n-]c(cc4[n-]c(cc5nc(cc1n2)C(C)=C5C=C)c(C)c4CCC(=O)O)c(CCC(=O)O)c3C.[Cl-].[Fe+3]  pKd (T5, G-quadruplex DNA central-tetrad variant; Cy5 fluorescence quenching titration; pH 8, KCl 200 mM, together with: MgCl2 1 mM): 3.37
Nc1nc2c(ncn2[C@@H]2O[C@H](COP(=O)(O)O)[C@@H](O)[C@H]2O)c(=O)[nH]1  pKd (T2, G-quadruplex DNA G6A/G17A (Homo sapiens); microscale thermophoresis; pH 7, KCl 37.5 mM): 4.04
CCc1c(C)c2cc3nc(cc4nc(cc5c(CC)c(C)c(cc1[nH]2)n5C)C(C)=C4CCC(=O)O)C(CCC(=O)O)=C3C  melting temperature shift (T3, G-quadruplex DNA (Homo sapiens); FRET melting; 1 µM, pH 7.2, Na+ 50 mM; higher = more stabilisation): 0.4 °C
C[n+]1cc(NC(=O)c2ccc3ccc4ccc(C(=O)Nc5cc6ccccc6[n+](C)c5)nc4c3n2)cc2ccccc21  pKd (T6, G-quadruplex DNA, parallel (Homo sapiens); Cy5 fluorescence quenching titration; 2 nM, pH 7.2, KCl 100 mM): 8.06
Nc1nc2c(ncn2[C@@H]2O[C@H](COP(=O)(O)OP(=O)(O)OP(=O)(O)O)[C@@H](O)[C@H]2O)c(=O)[nH]1  pKd (T2, G-quadruplex DNA G6A/G17A (Homo sapiens); microscale thermophoresis; pH 7, KCl 37.5 mM): 3.65
CC(C)C[C@H](NC(=O)[C@H](CCCNC(=N)N)NC(=O)[C@H](Cc1ccc(O)cc1)NC(=O)[C@H](Cc1ccccc1)NC(=O)[C@H](CCCNC(=N)N)NC(=O)[C@@H](N)Cc1c[nH]cn1)C(=O)N[C@@H](C)C(=O)N[C@@H](CC(N)=O)C(=O)O  pKd (T7, G-quadruplex DNA, quadruplex; ITC; pH 7.06, 25 °C, NaCl 150 mM, without K+): 4.26
COc1ccc2cc3[n+](cc2c1OC)CCc1cc2c(cc1-3)OCO2  melting temperature shift (T8, G-quadruplex DNA, G-quadruplex (Homo sapiens); FRET melting; target 0.2 µM, pH 7.0, KCl 10 mM, ligand:DNA ratio 5; higher = more stabilisation): 2.5 °C
COc1ccc2c(c[n+](C)c3c4cc5c(cc4ccc23)OCO5)c1OC  displacement (T9, G-quadruplex DNA (Homo sapiens); competitor, fluorescent dye displacement; 0.40 µM, pH 7.43, room temperature, K+ 100 mM; higher = more displacement): 63.1%

Some of these lines once more:
COc1cc(-c2ccc(N(C)C)cc2)c2cc3[n+](cc2c1OC)CCc1cc2c(cc1-3)OCO2  melting temperature shift (T4, G-quadruplex DNA, G-quadruplex (Homo sapiens); FRET melting; target 0.2 µM, pH 7.0, KCl 10 mM, ligand:DNA ratio 5; higher = more stabilisation): 3.6 °C
C=CC1=C(C)c2cc3[n-]c(cc4[n-]c(cc5nc(cc1n2)C(C)=C5C=C)c(C)c4CCC(=O)O)c(CCC(=O)O)c3C.[Cl-].[Fe+3]  pKd (T5, G-quadruplex DNA central-tetrad variant; Cy5 fluorescence quenching titration; pH 8, KCl 200 mM, together with: MgCl2 1 mM): 3.37
